Measurements gathered from unrelated publications.
Every numbered part comes from another study and shows a few of its results, in no order. Changes are numbered by the printed parent chain.

Block 1 — technique: RNA Bind-n-Seq; form: RNA; matrix: in vitro; tested at: 200 nM; setting: whole 134-nt RNA, ends assumed; together with: 150 mM LiCl; baseline: input library; direction: higher = stronger binding; library: 7-deaza-guanosine replaces G
Target: Fragile X messenger ribonucleoprotein 1, C-terminal low-complexity region (Fmr1, Mus musculus, UniProt P35922)
Constant ends, left off below: GGGAGUUCUACAGUCCGACGAUC … UGGAAUUCUCGGGUGUCAAGG
| Strand | log2 enrichment |
| --- | --- |
| CCUGUGCUACACAUCGUAUGUACCGAAUCGGGUUUUUUUGGGUUUUUGGGUUUUUUUGGGAAAGUAUUAUGUUACGCCGUUCGGAUCUGC | -1.16 |
| ACCAUGCAGGUGGGCAUCUUUGGGAAGUGGGGCAAGGGGGGGAUAGGGAGGGGGGUAACACUUUGGGACCAGGUGGUCCCAGGUCGUUUC | 1.41 |
| GUCCUGUGCUACACAUCGUAUGUACCGAAUCGGGAAAAAAAGGGUGGGAAAAAAAGGGAAAGUAUUAUGUUACGCCGUUCGGAUCUGCAC | -0.46 |
| ACCAUGUAGGUGGGCAUCUUUGGGAAGUGGGGCAAGGGGGGGAUAGGGAGGGGGGUAACACUUUGGGAACAGGUGGUCCCAGGUCGUUUC | 1.35 |
| CAAGUCCUGUGCUACACAUCGUAUGUACCGAAUCGGUUUGGGGUUUGGGUUUGGGGAAAGUAUUAUGUUACGCCGUUCGGAUCUGCACUU | -1.53 |
| GGUGGAAUCCAUAGAGCUCCCCAUGGACAACAAGACCAAUAAGAGGCGUGGGUUCUGCUUUAUUACCUUUAAGGAAGAAGAACCAGUGAA | 0.404 |
| CACAGACAACACGCACCCACACAAAAACAGAGGGAAGGGGUUGGGAUGGGGACAGGGUGCACAGCAGGGCGGGGUAGGACCCCAGCCCCU | -0.0726 |
| CUCAAGUCCUGUGCUACACAUCGUAUGUACCGAAUCGGAAAAAAAGGUGGAGGAAAGUAUUAUGUUACGCCGUUCGGAUCUGCACUUCCA | -0.566 |
| CCUGUGCUACACAUCGUAUGUACCGAAUCAAACCCCCCCAAACCCCCCCAAACCCCCAAAAAAGUAUUAUGUUACGCCGUUCGGAUCUGC | 1.03 |
| AGUCCUGUGCUACACAUCGUAUGUACCGAAUCGGGGAGGGGAAAAAGGGGAAAGGGGAAAGUAUUAUGUUACGCCGUUCGGAUCUGCACU | 0.317 |
| GUCCUGUGCUACACAUCGUAUGUACCGAAUCGGGCCCCGGGGCCCCGGGGCCCCGGGGAAAGUAUUAUGUUACGCCGUUCGGAUCUGCAC | 0.455 |

Block 2 — technique: RNA Bind-n-Seq; form: RNA; matrix: in vitro; tested at: not given; baseline: input RNA pool; direction: higher = stronger binding
Target: RING finger protein unkempt homolog, zinc fingers 1-6, GST-SBP tag (UNK, Homo sapiens, UniProt Q9C0B0, residues 30-357)
Chain of UniProt Q9C0B0 (30-357, looked up): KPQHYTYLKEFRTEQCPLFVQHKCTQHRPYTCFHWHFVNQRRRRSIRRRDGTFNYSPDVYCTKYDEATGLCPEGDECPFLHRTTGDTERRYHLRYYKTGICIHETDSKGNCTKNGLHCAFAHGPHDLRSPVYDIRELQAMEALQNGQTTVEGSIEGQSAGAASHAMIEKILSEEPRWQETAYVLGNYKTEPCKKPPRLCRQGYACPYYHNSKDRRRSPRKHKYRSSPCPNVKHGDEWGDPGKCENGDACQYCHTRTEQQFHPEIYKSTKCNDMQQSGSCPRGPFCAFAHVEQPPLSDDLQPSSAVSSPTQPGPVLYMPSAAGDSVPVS
Setting: RNA with constant flanks, human and mouse sites, ends assumed
Constant ends, left off below: GGGAGUUCUACAGUCCGACGAUC … CAACAGAGGAUUGAGCAUCA
| Strand | bound/input enrichment [ratio] |
| --- | --- |
| GCUGGCUUUCUAUCAUUUUUAUGUUUUAAUGCAAAGGAAAUUUUAAAAUGUUCUGGAAGUGUUUUUGAUUAAGCAAUGCAGCCUAGAAGCAAUGGUUCUGUUCAAUCAUUCAGAUGUUAG | 0.342 |
| GAUGAAUUGAUGACCCUGGCUCAUAAACACAUUGUCAAGACUGUGGAUUUCACGCAGGAUAGUAAUUAUUUGUUAACCGGGGGACAGGAUAAACUGUUACGCAUAUAUGACUUGAACAAA | 1.19 |
| ACGGACGGUCUGGAUGCCUCCUCCAGCCAGACAGUGACCCCAGUAGCAGAACCGCUGAGUUCUGAGCCGACACCACCAGAUGGGCCCACUUCCUCCUUGGGUCCCUUGGAUCUGCUGUCU | 0.287 |
| GAUCUCAUCGUGGCUGACAGUAGUCGCAAGGAAAUUCUCCAUUUUCCUAAGGGUGGGGGCUAUAGUGUCCUUAUUCGAGAGGGACUUACCUGUCCGGUGGGCAUAGCCCUAACUCCUAAG | 0.1 |
| UAUGGCAUCUCCCUUGCUUGCUGCAGCAGGGAUGGAAGAAAUGUCACUUUCUUUUUAAGCUAGCAAGCUUUUUCUUUUUCUUUUUCUUCUUCUAUUUAAAAAUUCUAAUCAUGGAUGCUU | 6.1 |
| GCAAAGCAAAUUUAUGAAGAAUUCAUCCAGACAGAGGCCCCUAAAGAGGUGAACAUUGACCACUUCACUAAAGACAUCACCAUGAAGAACCUGGUGGAACCGUCUCCUCGCAGCUUUGAC | 0.239 |
| GCUGAUGACAUAGCUGGGAAGUUUCAGUUCAGCCGGGGCAUGCGCCGCAGUUACGACGCAGGGUUCAAGCUGAUGGUAGUGGAAUAUGCUGAGAGUACCAACAACUGCCAGGCUGCCAAG | 0.139 |
| CCAAUGGAACCACAAGGGACUUUAGAUAUCACUCAGCAAGAUACUGCCAAAGGUGAUCAACUAGAAAGAAUUUCUAAUGGACCUGUAUUAACUUUGGGUGGUUCAUCUGUGAGCAGUAUA | 0.245 |
| CUGGUCUUGUUCUGGUCAUCUCCUGCCUCUUGUAUGCUGGAAUUUUGGCCUGAAUGACUAUUCUACUUCUCUCUGGGAUAUGAAGUAUUUGUGAGUAACUCAGGAUGUUCCUAAGUGGCC | 0.103 |
| AAGGUAAGACUUAUUUGUAGUAGAUAAAUAGCCACCAUGGAGACCAAGGACCACAAGAAACAUAGGAAGAAGCACAGUGGGCCUAAAGCUGAGAAGAAAAAGAAACGGCACCUGCAAGAC | 1.09 |
| AUCUUUUGGUUAUUCUAAGCCCUUUGCCAUCAAUGAUCAUAUCAAUUGGCAGUGACUUUGUAUAGAGAAUUUAAGUAGAAAAGUUGCAGAUGUAUUGACUGUACCACAGACACAAUAUGU | 1.35 |

Block 3 — technique: universal PBM; form: double-stranded DNA, one strand shown; matrix: in vitro; tested at: 600 nM; direction: higher = stronger binding
Target: Sal-like protein 4, full length isoform A (SALL4, Homo sapiens, UniProt Q9UJQ4, residues 1-1053)
Chain of UniProt Q9UJQ4 (whole entry, looked up): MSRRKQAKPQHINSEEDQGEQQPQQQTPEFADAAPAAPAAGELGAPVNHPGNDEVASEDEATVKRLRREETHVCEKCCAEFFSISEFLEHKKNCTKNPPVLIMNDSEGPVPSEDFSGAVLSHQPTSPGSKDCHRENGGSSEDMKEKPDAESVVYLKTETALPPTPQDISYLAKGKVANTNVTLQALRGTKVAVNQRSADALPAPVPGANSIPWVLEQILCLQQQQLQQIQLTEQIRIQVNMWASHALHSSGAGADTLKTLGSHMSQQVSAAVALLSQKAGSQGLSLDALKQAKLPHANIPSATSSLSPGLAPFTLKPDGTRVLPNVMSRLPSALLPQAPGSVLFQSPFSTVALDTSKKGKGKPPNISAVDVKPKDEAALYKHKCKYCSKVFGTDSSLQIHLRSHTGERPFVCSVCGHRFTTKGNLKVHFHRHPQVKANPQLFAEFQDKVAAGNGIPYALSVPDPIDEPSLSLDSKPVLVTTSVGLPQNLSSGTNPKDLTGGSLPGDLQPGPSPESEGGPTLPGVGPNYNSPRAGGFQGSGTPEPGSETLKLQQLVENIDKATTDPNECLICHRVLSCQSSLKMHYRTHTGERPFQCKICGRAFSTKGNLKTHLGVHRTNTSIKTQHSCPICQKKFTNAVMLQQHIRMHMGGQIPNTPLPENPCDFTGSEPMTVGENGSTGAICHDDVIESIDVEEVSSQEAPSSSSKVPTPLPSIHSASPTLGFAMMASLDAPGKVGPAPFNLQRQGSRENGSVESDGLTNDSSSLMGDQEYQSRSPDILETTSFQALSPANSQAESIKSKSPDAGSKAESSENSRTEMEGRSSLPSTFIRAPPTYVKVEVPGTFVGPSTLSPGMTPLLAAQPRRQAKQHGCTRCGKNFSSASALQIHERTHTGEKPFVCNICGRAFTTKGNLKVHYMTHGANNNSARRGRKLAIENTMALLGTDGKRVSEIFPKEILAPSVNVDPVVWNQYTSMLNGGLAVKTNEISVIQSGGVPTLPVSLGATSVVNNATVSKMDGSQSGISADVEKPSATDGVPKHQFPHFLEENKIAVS
Setting: 8-mer, flanks averaged, mean of replicates
| Strand | E-score |
| --- | --- |
| CTTACATA | 0.247 |
| ACAGGTAA | 0.134 |
| CGCGTAAA | 0.109 |
| ACTACCTC | -0.0134 |
| CGCGCAGA | -0.141 |
| CCGCCGTC | -0.368 |
| CGTGACCA | -0.143 |
| ACGGCCCA | -0.207 |
| GGTTATGA | 0.341 |
| CGAGGATC | -0.123 |
| CGTAACAG | 0.0595 |
| AGGAACAG | -0.087 |
| AATTTGGA | 0.14 |
| GAGGTACC | -0.395 |
| CCAATTAC | 0.0821 |
| ACAGCCTA | 0.0492 |
| ATTCTTAC | 0.245 |
| GGGGTTAA | -0.131 |
| ATCAGCTG | 0.034 |
| CAATGCCC | -0.145 |
| AAATGGTA | 0.323 |
| GCTCGAGA | -0.162 |
| CTAAACGA | -0.0332 |
| GCCAAATA | 0.107 |

Block 4 — technique: protein binding microarray; form: double-stranded DNA, one strand shown; matrix: in vitro; tested at: not given; baseline: not given; direction: higher = stronger binding
Target: Histone acetyltransferase KAT6A, winged helix 2, GST fusion (KAT6A, Homo sapiens, UniProt Q92794, residues 85-181)
Setting: 8-mer, flanks averaged, mean of 2 arrays, mostly near background
Construct (chain): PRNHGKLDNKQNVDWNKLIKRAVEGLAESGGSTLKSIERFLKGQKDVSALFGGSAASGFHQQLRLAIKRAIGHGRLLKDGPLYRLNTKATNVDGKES
| Strand | E-score |
| --- | --- |
| AACTACTG | -0.0291 |
| GGACTTAA | -0.12 |
| CGAGGGAA | -0.0117 |
| CCTACAAC | 0.00323 |
| GATGGGGA | -0.0657 |
| AGCTGTGA | 0.0147 |
| GAAGTAGC | 0.0897 |
| ATAGGTTC | -0.19 |
| ACGACTCC | -0.0707 |
| CTGGGCTC | 0.0594 |
| TCGAGAAA | 0.114 |
| TCTAAAAA | 0.187 |
| AATATTGG | -0.208 |
| AAATACGA | 0.0764 |
| GGTGATAA | -0.0588 |
| GCAACGCA | 0.103 |
| GACCTGGC | 0.0763 |
| CACGTCGG | -0.00445 |
| AACACTGT | -0.205 |
| CAGTAGAA | -0.0306 |
| AAGGCCAT | -0.119 |
| GATGCCCA | 0.207 |
| AATAGATA | -0.123 |
| AGATCAGG | -0.0741 |
| AAATATGC | 0.00261 |

Block 5 — target: DBP, bZIP domain (human); technique: DHFR protein complementation; matrix: yeast; baseline: wild-type JUN-FOS pair; direction: higher = stronger binding
Setting: single substitutions, most at no-binding floor
Parent: JUN, bZIP domain (human); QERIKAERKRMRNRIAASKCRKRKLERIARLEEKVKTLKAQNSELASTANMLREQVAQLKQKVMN; partner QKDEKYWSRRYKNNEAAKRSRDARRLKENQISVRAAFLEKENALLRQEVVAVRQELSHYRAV
| Substitution | binding fitness |
| --- | --- |
| V35A | -1.35 natural log |
| T37V | -1.35 natural log |
| A40T | -1.53 natural log |
| R30W | -1.5 natural log |
| A46N | -1.46 natural log |
| Q41G | -1.43 natural log |
| R53D | -1.45 natural log |
| K39W | -1.46 natural log |
| T37L | -1.35 natural log |
| A29M | -1.49 natural log |
| L45M | -1.42 natural log |
| A40S | -1.49 natural log |
| L52K | -1.52 natural log |
| R30C | -1.49 natural log |
| A49E | -1.54 natural log |
| V56W | -1.47 natural log |
| I28E | -1.54 natural log |
| A29P | -1.52 natural log |
| L31T | -1.26 natural log |
| S43L | -1.51 natural log |

Some of these lines once more (block 3):
| Strand | E-score |
| --- | --- |
| ACAGGTAA | 0.134 |
| GCTCGAGA | -0.162 |
| CGCGTAAA | 0.109 |
| AAATGGTA | 0.323 |
| ATCAGCTG | 0.034 |
| ACAGCCTA | 0.0492 |
| ACGGCCCA | -0.207 |
